Results of several laboratories.
Compare with care: the assays were run in different laboratories. Several values in a cell are separate wells, animals, samples, runs or records. ± gives the spread as reported.

Compound | cell line | test | system | conditions | how to read | measurement | value
CCCCCN1C[C@H](O)[C@@H](O)[C@H](O)[C@@H]1CO | Sandhoff disease patient fibroblasts | glycosphingolipid lowering, LC-MS/MS, refers to: Gb3 d18:0/22:0 |  |  |  | IC50 | 404 nM
CCn1cc(-c2cc(Cn3ccnc3)cc3c2CCN([C@H](c2cc(OC)ccn2)C2CC2)C3=O)c(C(F)(F)F)n1 | DLD-1 | cell growth, inhibitor |  | 120 h |  | EC50 | > 30000 nM
Cc1cc(Nc2ncc(Cl)c(Nc3ccccc3S(=O)(=O)C(C)C)n2)c(OC(C)C)cc1C1CCNCC1 | CLB-BAR | phosphoproteomics LC-MS/MS, refers to: RECQL4 phosphorylation |  | 200 nM, 60 min | baseline: untreated | log2 fold change | -2.13
c1ccc2[nH]ccc2c1 | HCT-8 | RNA-seq, refers to: ZNF763 |  | concentration not given |  | mRNA level, LS mean | 3.09 counts per million
COc1cc(C(=O)N2CCC(N3CCN(C)CC3)CC2)ccc1Nc1ncc2c(n1)N(C)c1ccccc1C(=O)N2C | SNU-1040 |  |  | 330 nM, 3 days, 100% DMSO | baseline: vehicle | cell growth | 63%
Nc1cccc2c1C(=O)N(C1CCC(=O)NC1=O)C2=O (centres unmarked) | MM1.S resistant to compound | XTT |  | 0.4 µM |  | viability | 85% and 114% and 93%
Nc1ncnc2nc(-c3ccc(N4CCOCC4)nc3)cc(-c3cccc(Br)c3)c12 | activated human T cells |  | human | 316 pM |  | T cell proliferation | 0% and 0.2% and 2.2%
O=c1[nH]nc(OCCCc2ccc(Cl)cc2)c(NCc2cccnc2)c1Br | HEK-293T | RNA-seq GSEA, refers to: HALLMARK_ESTROGEN_RESPONSE_EARLY |  | concentration not given | direction not given | normalized enrichment score | -1.19
CCCCc1nc(Cl)c(CO)n1Cc1ccc(-c2ccccc2-c2nn[nH]n2)cc1 | human PBMC | RNA-seq, refers to: ASRGL1 mRNA |  | 10 µg/mL, 24 h | baseline: untreated control | log2 fold change | -1.62
CCn1cc(-c2cc(Cn3ccoc3=N)cc3c2CCN([C@@H](C)c2cc(OC)ccn2)C3=O)c(C(F)(F)F)n1 | KURAMOCHI | cell growth, inhibitor |  | 120 h |  | EC50 | 463 nM
CCCCCCCCCCCCCCCCCCOc1cccc(CC(=O)OCC[N+](C)(C)C)c1 | NSCLC panel (nine cell lines) |  |  | 10 µM |  | mean growth inhibition | 6.55%
Cn1cc(-c2ccc(-c3cncc(Cl)c3N3CCC4(CCNC4=O)CC3)cc2)cn1 | COLO 205 | microarray, refers to: FAS |  | concentration not given, 2 h, gene set FasR(CD95) | baseline: untreated cells | fold change in expression | 2.03
CC(=O)Nc1cccc(-n2c(=O)n(C3CC3)c(=O)c3c(Nc4ccc(I)cc4F)n(C)c(=O)c(C)c32)c1 | LoVo (KRAS G13D) | cell viability, resazurin |  | 50.00 nM, 72 h | baseline: DMSO | fractional effect | 0.677 and 0.633
CN(C)C(=O)c1cncc(-c2cnc3[nH]cc(-c4ccccc4C#N)c3c2)c1 | Ba/F3 BCR-ABL wild type | cell proliferation |  | 72 h |  | GI50 | 615 ± 36.2 nM
Cn1cc(Nc2nccc(-c3ccc4c(c3)CN(C3COC3)CC[C@H]4NC(=O)c3cn(C(C)(C)C)nn3)n2)cn1 | human B cells |  |  | 100 nM, 64 h, non-stimulation-regulated genes, with: CD40L, anti-IgM, IL-21 |  | number of upregulated genes | 126
CC(C)NCC(O)c1ccc(O)c(O)c1 (centres unmarked) | mouse ventricular cardiomyocytes |  |  | dose not given, 0.199 s |  | sarcomere length | 1.73 µm
CCCCCCCC(=O)Oc1c(C)c(O)c(C(=O)/C=C/c2ccccc2)c(OC)c1C | KKU-M213 | SRB |  |  | baseline: normal over KKU-M213 IC50 | selectivity index | 1.03
COc1ccc(-n2nc(C(C)=O)s/c2=N\N=C(/C)c2ccc(NC(=O)c3ccc(C)cc3)cc2)cc1 | HepG2 |  |  | 2.5 µM |  | toxicity | 88.1%
Cn1c(Nc2nc3ccc(C(F)(F)F)cc3s2)nc2cc(C(=O)NCCOCCO)ccc21 | SH-SY5Y | RNA-seq, refers to: PHLDA1 mRNA |  | 5 µM, 5 h | baseline: untreated cells | fold change | 1.64
Nc1ncnc2c1ncn2[C@@H]1O[C@H](CO)[C@@H](O)[C@H]1O | activated human T cells |  |  | 1 µM | higher = more IFNγ | IFNγ production | 469 a.u. and 365 a.u. and 371 a.u.
